Literature values, collected from citations in different studies.
Compare with care: the assays were run in different laboratories. “And” joins repeats or separate records; there may be more than shown. ± gives the spread as reported. Ends that are not written are not given here. [ ]: non-standard residue; d: D form.
Grin2b with GluN1a: Glutamate receptor ionotropic, NMDA 2B, with GluN1a (Grin2b, Rattus norvegicus, UniProt Q00960)
Equilibrative nucleoside transporter 2: Equilibrative nucleoside transporter 2 (Homo sapiens, UniProt Q14542)
Grin2a with GluN1a subunit: Glutamate receptor ionotropic, NMDA 2A, with GluN1a subunit (Grin2a, Rattus norvegicus, UniProt Q00959)

| Molecule | target | test | system | conditions | Ki |
| --- | --- | --- | --- | --- | --- |
| O=C(O)[C@H]1NCCN(C(=O)c2ccc3c(ccc4cc(Br)ccc43)c2)[C@H]1C(=O)O | Grin2b with GluN1a | ion current, antagonist | Xenopus oocytes expressing GluN1/GluN2B, rat |  | 0.25 ± 0.02 µM |
| C[C@H](CCC(=O)O)[C@H]1CC[C@H]2[C@@H]3CC[C@@H]4C[C@H](O)CC[C@]4(C)[C@H]3C[C@H](O)[C@]12C | Ileal sodium/bile acid cotransporter (SLC10A2, Homo sapiens, UniProt Q12908) | bile acid transport, inhibitor |  |  | 8.31 µM |
| Nc1ncnc2c1ncn2[C@@H]1O[C@H](CO)[C@@H](O)[C@H]1O | Equilibrative nucleoside transporter 2 |  | ENT1 knockout |  | 2.6 ± 0.9 µM |
| C[C@H]1O[C@@H](O[C@H]2[C@@H](O)C[C@H](O[C@H]3[C@@H](O)C[C@H](O[C@H]4CC[C@@]5(C)[C@H](CC[C@@H]6[C@@H]5C[C@@H](O)[C@]5(C)[C@@H](C7=CC(=O)OC7)CC[C@]65O)C4)O[C@@H]3C)O[C@@H]2C)C[C@H](O)[C@@H]1O | Na+/K+-ATPase (human kidney) |  | crude kidney membranes | 2 h | 0.28 µM |
| O=[N+]([O-])c1cccc(CSc2ncnc3c2ncn3C2CC(CO)C(O)C2O)c1 (stereo not shown) | adenosine kinase (Toxoplasma gondii) |  |  | apparent Ki equals apparent Km | 27 ± 2.7 µM |
| CC1CN(c2ccc3ccccc3n2)CCN1CCCCN1C(=O)CCCC1=O (stereo not shown) | SERT (human) | binding | human tissue | together with: [3H]5-HT | 0.05 µM |
| O=C(OC[C@H]1O[C@@H](OC(=O)c2cc(O)c(O)c(O)c2)[C@H](OC(=O)c2cc(O)c(O)c(O)c2)[C@@H](OC(=O)c2cc(O)c(O)c(O)c2)[C@@H]1OC(=O)c1cc(O)c(O)c(O)c1)c1cc(O)c(O)c(O)c1 | 5α-reductase (rat liver microsomes) | non-competitive inhibitor |  | together with: testosterone | 2.68 µM |
| O=C(O)[C@H]1NCCN(S(=O)(=O)c2ccc(-c3ccccc3)cc2)[C@H]1C(=O)O | Grin2b with GluN1a | ion current, antagonist | Xenopus oocytes expressing GluN1/GluN2B, rat |  | 16.2 ± 4.1 µM |
| O=C(O)c1cccc([C@H]2CCN[C@@H]2C(=O)O)c1 | Glutamate receptor ionotropic, kainate 2 (Grik2, Rattus norvegicus, UniProt P42260) | binding, [3H]kainate displacement |  | cloned homomeric receptor | > 100 µM |
| CCOc1cccc(NC(=O)c2ccc(N3CCCC3)c(C(F)(F)F)c2)c1 | Trace amine-associated receptor 1 (TAAR1, Homo sapiens, UniProt Q96RJ0) | binding |  |  | > 5 µM |
| O=C(O)c1cc2c(C(F)(F)F)cc(-c3ccccc3)cc2n1O | lactate dehydrogenase A | inhibitor, Lineweaver-Burk plot |  |  | 8.9 µM |
| C[C@@H]1CCO[C@H]2Cn3cc(C(=O)NCc4ccc(F)cc4F)c(=O)c(O)c3C(=O)N12 | Multidrug and toxin extrusion protein 2 (SLC47A2, Homo sapiens, UniProt Q86VL8) | inhibitor |  | geometric mean of reported | 19.4 µM |
| CCC1=C(C)c2cc3[nH]c(cc4[nH]c(cc5nc(cc1n2)C(C)=C5CC)c(C)c4CCC(=O)O)c(CCC(=O)O)c3C | TSPO |  |  |  | 0.578 µM |
| CC[C@H](C)[C@H](NC(=O)[C@@H](NC(=O)[C@H](CO)NC(=O)[C@@H](NC(=O)[C@@H]1CCCN1C(=O)[C@H](Cc1c[nH]c2ccccc12)NC(=O)[C@H](CCCNC(=N)N)NC(=O)[C@H](CO)NC(=O)[C@H](CC(N)=O)NC(=O)[C@H](C)N)[C@@H](C)O)[C@@H](C)CC)C(=O)O | Na(+)/H(+) exchange regulatory cofactor NHE-RF2, PDZ domain 1 (Homo sapiens, UniProt Q15599) | binding, fluorescence polarization displacement |  | PDZ domain 1, together with: fluorescent CFTR peptide | > 1000 µM |
| COc1ccccc1CN(C(C)=O)c1cnccc1Oc1ccccc1 | Translocator protein (TSPO, Homo sapiens, UniProt P30536) |  | human brain tissue | mixed-affinity binders, low-affinity site | 0.313 µM and ~0.3 µM |
| O=c1[nH]c(=O)c2[nH]c(=O)c(=O)n(C[C@H](O)[C@H](O)[C@H](O)CO)c2[nH]1 | 6,7-dimethyl-8-ribityllumazine synthase (ribH, Mycobacterium tuberculosis, UniProt P9WHE9) | inhibitor |  | pH 7.0 | 1.4 ± 0.1 µM |
| GIINTLQKYYCRVRGGRCAVLSCLPKEEQIGKCSTRGRKCCRRKK (β-defensin 3 (human); ends and bridges not checked; cysteine pairing not given here; sequence looked up) | MC1R |  | peptide |  | 0.0138 µM |
| O=C(O)[C@H]1NCCN(Cc2ccc3c(ccc4ccccc43)c2)[C@H]1C(=O)O | Grin2a with GluN1a subunit | ion current, antagonist | Xenopus oocytes expressing GluN1/GluN2A, rat |  | 11.2 ± 1.3 µM |
| Nc1ncnc2c(CN3C[C@H](CSc4ccc(Cl)cc4)[C@@H](O)C3)c[nH]c12 | S-methyl-5'-thioadenosine phosphorylase (MTAP, Homo sapiens, UniProt Q13126) | inhibitor |  |  | 1e-05 µM |
| CNC(=O)[C@@]12C[C@@H]1[C@@H](n1cnc3c(NCc4cccc(I)c4)nc(Cl)nc31)[C@H](O)[C@@H]2O | Adenosine receptor A1 (ADORA1, Homo sapiens, UniProt P30542) | binding |  |  | 0.136 ± 0.022 µM |

| Molecule | target | test | system | conditions | Ki |
| --- | --- | --- | --- | --- | --- |
| MANT-GTP | Adcy2/ADCY5, C1/C2 domains (Rattus norvegicus, UniProt P26769+P30803) | enzyme activity, inhibitor |  | together with: 10 mM MnCl2 and 100 µM forskolin | 0.13 ± 0.02 µM |
| O=C(NCCCCN1CCN(c2ccccc2OCCF)CC1)c1ccc(-c2ccsc2)cc1 | sigma 2 receptor |  |  |  | > 5 µM |
| OCC1CC(n2cnc3c(SCc4ccc(Cl)c(Cl)c4)ncnc32)C(O)C1O (stereo not shown) | adenosine kinase (Toxoplasma gondii) |  |  | apparent Ki equals apparent Km | 17 ± 4.1 µM |
| CNC(=O)[C@@]12C[C@@H]1[C@@H](n1cnc3c(NCc4cccc(Cl)c4)nc(Cl)nc31)[C@H](O)[C@@H]2O | Adenosine receptor A2a (ADORA2A, Homo sapiens, UniProt P29274) | binding | HEK293 expressing target |  | 2.3 ± 0.1 µM |
| Nc1nc(Cl)nc2c1ncn2[C@H]1C[C@H](O)[C@@H](CO)O1 | Equilibrative nucleoside transporter 2 |  | ENT1 knockout |  | 23 ± 10 µM |
| Cc1ccc(CSc2ncnc3c2ncn3C2CC(CO)C(O)C2O)cc1 (stereo not shown) | adenosine kinase (Toxoplasma gondii) |  |  | apparent Ki equals apparent Km | 7.5 ± 0.6 µM |
| O=C(O)[C@H]1NCCN(C(=O)c2ccc3c(c2)CCc2cc(Br)ccc2-3)[C@H]1C(=O)O | Grin2a with GluN1a subunit | ion current, antagonist | Xenopus oocytes expressing GluN1/GluN2A, rat |  | 3.9 ± 0.2 µM |
| O=C(Nc1ccc2ccccc2c1)c1cc(-c2ccncc2)nc2ccccc12 | Cytochrome P450 2C9 (CYP2C9, Homo sapiens, UniProt P11712) | enzyme activity, inhibitor |  | together with: diclofenac at saturating concentration | 0.03 µM |
| NCCCNC(=O)[C@H]1O[C@@H](n2cnc3c(N)ncnc32)[C@H](O)[C@@H]1O | adenosine A2A receptor | binding |  |  | > 10 µM |
| CNC(=O)c1cnn(-c2nc(N)c3ncn([C@@H]4O[C@H](CO)[C@@H](O)[C@H]4O)c3n2)c1 | adenosine receptor A1 (human) | binding |  |  | > 16 µM |
| Ac-W[dPhe(4-I)]RW-NH2 (N-acetyl, D-4-iodo-Phe2, C-amide; dPhe(4-I) = N[C@H](Cc1ccc(I)cc1)C(=O)O) | mouse MC4R | antagonist, Schild analysis | HEK293 |  | 0.0148 µM |
| CSC[C@H]1CN(Cc2c[nH]c3c(N)ncnc23)C[C@@H]1O | 5'-methylthioadenosine/S-adenosylhomocysteine nucleosidase (mtnN, Salmonella choleraesuis, UniProt Q57T48) | inhibitor |  |  | 2e-06 µM |
| O=[N+]([O-])c1ccc(CSc2ncnc3c2ncn3C2CC(CO)C(O)C2O)cc1 (stereo not shown) | adenosine kinase (Toxoplasma gondii) |  |  | apparent Ki equals apparent Km | 94 ± 15 µM |
| CO[C@H]1/C=C/O[C@@]2(C)Oc3c(C)c(O)c4c(O)c(c(/C=N/N5CCN(C)CC5)c(O)c4c3C2=O)NC(=O)/C(C)=C\C=C\[C@H](C)[C@H](O)[C@@H](C)[C@@H](O)[C@@H](C)[C@H](OC(C)=O)[C@@H]1C | Solute carrier organic anion transporter family member 1B3 (SLCO1B3, Homo sapiens, UniProt Q9NPD5) |  |  |  | 1.45 µM |
| COc1ccc(CSc2ncnc3c2ncn3C2CC(CO)C(O)C2O)cc1 (stereo not shown) | adenosine kinase (Toxoplasma gondii) |  |  | apparent Ki equals apparent Km | 62 ± 4.7 µM |
| CC(C)C[C@H](CC(=O)NO)C(=O)N[C@H](C(=O)N[C@@H](C)C(=O)NCCN)C(C)(C)C | ADAM17 | inhibitor |  | literature value | 0.12 ± 0.03 µM |
| OCC1CC(n2cnc3c(SCc4cccc(C(F)(F)F)c4)ncnc32)C(O)C1O (stereo not shown) | adenosine kinase (Toxoplasma gondii) |  |  | apparent Ki equals apparent Km | 22 ± 1.3 µM |
| CC(C(=O)NCc1ccc(C(C)(C)C)cc1)c1ccc(NS(C)(=O)=O)c(F)c1 (stereo not shown) | Transient receptor potential cation channel subfamily V member 1 (Trpv1, Rattus norvegicus, UniProt O35433) | 45Ca2+ uptake, antagonist | CHO expressing rat TRPV1 |  | 0.0076 µM |
| Cc1cccc(CSc2ncnc3c2ncn3C2CC(CO)C(O)C2O)c1 (stereo not shown) | adenosine kinase (Toxoplasma gondii) |  |  | apparent Ki equals apparent Km | 27 ± 4.2 µM |
| NC(=O)C1=CN([C@@H]2O[C@H](COP(=O)(O)OP(=O)(O)OC[C@H]3O[C@@H](n4cnc5c(N)ncnc54)[C@H](O)[C@@H]3O)[C@@H](O)[C@H]2O)C=CC1 | Alcohol dehydrogenase E chain (Equus caballus, UniProt P00327) | enzyme activity, product inhibitor |  | pH 8.0, 25 °C | 0.5 µM |

For quick reference, copied from above:
| Molecule | target | test | system | conditions | Ki |
| --- | --- | --- | --- | --- | --- |
| Cc1cccc(CSc2ncnc3c2ncn3C2CC(CO)C(O)C2O)c1 (stereo not shown) | adenosine kinase (Toxoplasma gondii) |  |  | apparent Ki equals apparent Km | 27 ± 4.2 µM |
| GIINTLQKYYCRVRGGRCAVLSCLPKEEQIGKCSTRGRKCCRRKK (β-defensin 3 (human); ends and bridges not checked; cysteine pairing not given here; sequence looked up) | MC1R |  | peptide |  | 0.0138 µM |
| CC1CN(c2ccc3ccccc3n2)CCN1CCCCN1C(=O)CCCC1=O (stereo not shown) | SERT (human) | binding | human tissue | together with: [3H]5-HT | 0.05 µM |
| CC[C@H](C)[C@H](NC(=O)[C@@H](NC(=O)[C@H](CO)NC(=O)[C@@H](NC(=O)[C@@H]1CCCN1C(=O)[C@H](Cc1c[nH]c2ccccc12)NC(=O)[C@H](CCCNC(=N)N)NC(=O)[C@H](CO)NC(=O)[C@H](CC(N)=O)NC(=O)[C@H](C)N)[C@@H](C)O)[C@@H](C)CC)C(=O)O | Na(+)/H(+) exchange regulatory cofactor NHE-RF2, PDZ domain 1 (Homo sapiens, UniProt Q15599) | binding, fluorescence polarization displacement |  | PDZ domain 1, together with: fluorescent CFTR peptide | > 1000 µM |
| O=[N+]([O-])c1cccc(CSc2ncnc3c2ncn3C2CC(CO)C(O)C2O)c1 (stereo not shown) | adenosine kinase (Toxoplasma gondii) |  |  | apparent Ki equals apparent Km | 27 ± 2.7 µM |
| O=C(O)[C@H]1NCCN(Cc2ccc3c(ccc4ccccc43)c2)[C@H]1C(=O)O | Grin2a with GluN1a subunit | ion current, antagonist | Xenopus oocytes expressing GluN1/GluN2A, rat |  | 11.2 ± 1.3 µM |
